Measurements gathered from unrelated publications.
A part holds a random share of what one study measured.

Study 1 — technique: RNA Bind-n-Seq; molecule type: RNA; medium: in vitro; concentration: 200 nM; notes: whole 134-nt RNA, ends assumed; together with: 150 mM LiCl; reference: input library; direction: higher = stronger binding; library: 7-deaza-guanosine replaces G
Target: Fragile X messenger ribonucleoprotein 1, C-terminal low-complexity region (Fmr1, Mus musculus, UniProt P35922)
All sequences stand within: GGGAGUUCUACAGUCCGACGAUC … UGGAAUUCUCGGGUGUCAAGG
Sequence | log2 enrichment
UUUAGCCUGUGGAAUGAUAGCAGUAGGGUCCUGCAAUGGAGAUGUAACUUCCACUAUCCUUCAGACCAUCAUGGAGAAGUCAGAGACUGA | -0.804
UCAAGUCCUGUGCUACACAUCGUAUGUACCGAAUCGGGGCCGGGCCGGGCCGGGAAAGUAUUAUGUUACGCCGUUCGGAUCUGCACUUCC | 0.48
CUGUGCUACACAUCGUAUGUACCGAAUCGGGGAAAGGGGUUUUUUUGGGGUUUUUUUGGGGAAAGUAUUAUGUUACGCCGUUCGGAUCUG | -0.306
UGAAAAUGCUUUCAUGUUAAUUGUGUACACACAUUUCAUCUGUAUCCCUGUUUCUUUUCUCCCUACAGAAACAUAUGAGGAUUUUGAUAC | 0.304
AAGUCCUGUGCUACACAUCGUAUGUACCGAAUCGGGGUGGGGAAAAAGGGGAGGGGAAAGUAUUAUGUUACGCCGUUCGGAUCUGCACUU | 0.357
CCUGUGCUACACAUCGUAUGUACCGAAUCGGGGUGGGGAAAAAAAGGGGAAAAAAAGGGGAAAGUAUUAUGUUACGCCGUUCGGAUCUGC | -0.525
UGUGCUACACAUCGUAUGUACCGAAUCGGGGAAAAAAAGGGGUUUUUUUGGGGUUUUUGGGGAAAGUAUUAUGUUACGCCGUUCGGAUCU | -2.36
AGUCCUGUGCUACACAUCGUAUGUACCGAAUCAAACCCAAAUUUUUAAACCCCCAAAAAAGUAUUAUGUUACGCCGUUCGGAUCUGCACU | 1.06
CCUCAAGUCCUGUGCUACACAUCGUAUGUACCGAAUCGGGCGGGCGGGGCGGAAAGUAUUAUGUUACGCCGUUCGGAUCUGCACUUCCAG | -0.333
UCAAGUCCUGUGCUACACAUCGUAUGUACCGAAUCGGUUUGGGUUUGGGUUUGGAAAGUAUUAUGUUACGCCGUUCGGAUCUGCACUUCC | -1.1
UGGGAGGUGGAUUUUGCUUAUUUUUUUAGCUCAUUUCCAGGGGUGGGAAUUUUUUUUUAAUAUGUGUCAUGAAUAAAGUUGUUUUUGAAA | -0.449

Study 2 — technique: protein binding microarray; molecule type: double-stranded DNA, one strand shown; medium: in vitro; concentration: not given; reference: not given; direction: higher = stronger binding
Target: Histone acetyltransferase KAT6A, winged helix 1, GST fusion (KAT6A, Homo sapiens, UniProt Q92794, residues 1-85)
Notes: 8-mer, flanks averaged, mean of 2 arrays, mostly near background
Construct (chain): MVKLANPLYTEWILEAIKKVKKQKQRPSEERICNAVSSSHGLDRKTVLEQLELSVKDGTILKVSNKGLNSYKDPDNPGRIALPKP
Sequence | E-score
AAACAACT | -0.193
GGTCTGCA | 0.0836
ACTCGAGC | -0.135
CACAATTA | -0.0859
CCCTCACC | -0.0826
CTCGCCTA | -0.014
CTTAGGTA | -0.244
GTGTAGAA | -0.132
GAATCGGA | -0.00984
ATTGCACC | -0.106
CCTCATAC | -0.19
CTGAGGGA | -0.17
AACAACGA | -0.158
CCCCATTA | -0.172
AGAGATGC | -0.0589
CTCCGCAC | 0.061
CGAGAGCC | 0.0251
TACTGGGA | -0.0786
ATGCAATC | -0.135
AAGCGACA | 0.117
ACGAACGA | -0.0578
ATTCTCCA | -0.117
CACTTTTA | -0.109
GAGAGTCA | -0.146
ACATAAGT | -0.206

Study 3 — technique: RNA Bind-n-Seq; molecule type: RNA; medium: in vitro; concentration: 365 nM; reference: no-protein control; direction: higher = stronger binding
Target: RNA binding protein fox-1 homolog 2, RRM domain, GST-SBP tag (RBFOX2, Homo sapiens, UniProt O43251-10, residues 100-194)
Notes: natural RNA segment, single round, ends assumed
All sequences stand within: GGGAGUUCUACAGUCCGACGAUC … UGGAAUUCUCGGGUGCCAA
Residues (chain): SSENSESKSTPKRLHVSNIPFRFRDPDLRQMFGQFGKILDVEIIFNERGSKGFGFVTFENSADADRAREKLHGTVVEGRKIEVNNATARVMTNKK
Sequence | RBNS enrichment (R)
GGUACCGUAGAGUGGAAAUGAUCUUCAAUAAUAACAGUAGUGACUUUUGGAUGCUUUGUUGCUGGUAUGACUCUUGAGGUGUCCUGAUUUGUGUCCAGUUUUUGAACCUC | 2.02
CACACAUCAUUGCUGGGAGAAUUAAGCAUUAUCCUGAAGACUCUGCCAGGAGAGGAUAAUUGGAAGUUCUCUUGGACCUUACCUUAUGUGCCUUUCUUCAUUGCUGAUUU | 0.309
GCAGAUGCCUGCUCGCUCUGUCACCUGUGCCUCUCAGAACACCAGCAGUUAACCUUCAAGACAUUCCACUUGCUAAAAUUAUUUAUUUUGUAAGGAGAGGUUUUAAUUAA | 0.787
UCCGCCAGCCAUUGCUCUUGGCUCCCACUUCCUCUGCCAAGAUGCGUUAGCAGAUGGCCAUUCUGGUCAGCUCCCUGCCAGGUCAUAGGGUCACAUACCGUCAACUUCAC | 0.561
AUGAUAUCUAGGCAUAACCUAGCCUGUGAGGAACCUAGUUAGGAAAGACAACUGACAUUUAUUGAAUAUCAUGCACUAGUCCCUUACAUAUGUCAUAUUUUAAUUAUAGA | 0.913
GUGACUCAGCAAGGCAGUGUCAGAGCUGGGACUGGGCGUAGGCCUUUGUCCUCAUCCCCAGCACUGGCCUCCCUGUGGAAGAUGAACAUAUCCCAGCCACCUGUGUACAG | 0.466
UUGUGAGACAUUCACUUGCUCUUUUGCCAUAUUUAGAUGUGUCAGUGGAAUCAGAAACCUGUUUUGAUAUGUGUUCUCUAUGAGUUAAGUCUGAUUUGUCUUUUUAUUUC | 0.631
ACUUUGUAUUGCCCACUCAUUUGUAUAAGUGCGCUUCGGUACAGCACGGGUCCUGCUCCCGCGAUGUGGAAGUGUCACACGGCACCUGUACAAAAAGACUGGCUAACCCC | 0.384
AAAGAGACACACAAAGAUGGGCUGUGAGCCCCUAGAAAGGGACUAGUUAGUUGCCUUUGAUAGAAUUCCUUGCACCUGCCAUUGUUGGUUUGAUGAACACGAUUAGGUAC | 1.15
AGACUUGCAGGCAAUAAUCUCCGCCCUCCCAGUUGUACCUCCUCCCCACCUGCUUAUUUAAAAUCAAGUUUAUUGUAGAAAUGGUGUGGUGUUGAUGUGUGUUUUCCCUA | 0.335
AAGCUCAGGUUAAUACAAGCUGAUUGUUCAGUGUCUUAAGACUUAUGCUGUUUCCAAAAGGCCAAAUAAACCAGGAUUUUCUCUGGAUGCUUGGAGAAAGAAGAAACCCU | 0.311
GACCUCUGAGAAGUUGGAGAAGUCAGGAAAUUGUACUCUCCACACCGUCCUGGUUUAGUGGAUGGGGAGGAUGGGGUGACGGCUUACCAGCUGUAUUAUGUACUGUACUG | 0.467

Study 4 — technique: aptamer microarray, sandwich; molecule type: DNA with 2'F-ANA; medium: in vitro; concentration: 200 nM; together with: Cy3 exosite-II aptamer, 400 nM; direction: higher = stronger binding; sequence: GGTTGGTGTGGTTGG
Target: Prothrombin, mature alpha-thrombin (F2, Homo sapiens, UniProt P00734)
Notes: whole 15-mer aptamer, many near background
Modification | mean fluorescence intensity
2'F-ANA at 1 2 3 6 7 9 10 11 14 15 | 54.2 a.u.
2'F-ANA at 4 6 7 13 15 | 158 a.u.
2'F-ANA at 3 4 5 6 8 13 14 | 49.7 a.u.
2'F-ANA at 2 6 8 9 11 13 15 | 272 a.u.
2'F-ANA at 3 5 8 9 11 13 14 | 58.5 a.u.
2'F-ANA at 2 3 4 9 11 13 14 15 | 242 a.u.
2'F-ANA at 4 7 13 14 | 103 a.u.
2'F-ANA at 1 4 5 13 14 | 46 a.u.
2'F-ANA at 2 4 5 6 7 8 10 12 13 | 49.4 a.u.
2'F-ANA at 1 3 4 6 8 9 10 11 12 13 | 64 a.u.
2'F-ANA at 4 9 10 11 12 13 15 | 76.1 a.u.
2'F-ANA at 4 5 6 7 9 10 11 14 15 | 61.7 a.u.
2'F-ANA at 1 2 6 8 10 12 13 | 68.9 a.u.
2'F-ANA at 1 4 5 6 8 11 14 | 45.5 a.u.
2'F-ANA at 1 2 7 8 9 10 11 12 13 14 | 50.1 a.u.
2'F-ANA at 1 2 4 5 6 8 12 15 | 110 a.u.
2'F-ANA at 3 5 11 13 15 | 120 a.u.
2'F-ANA at 1 4 5 9 10 13 15 | 48.9 a.u.
2'F-ANA at 1 2 3 6 11 12 13 14 | 74.9 a.u.
2'F-ANA at 3 9 10 11 13 15 | 475 a.u.
2'F-ANA at 2 5 9 14 15 | 49.8 a.u.
2'F-ANA at 2 6 7 9 10 11 14 15 | 82.5 a.u.
2'F-ANA at 1 4 11 12 14 15 | 57.7 a.u.
2'F-ANA at 1 2 3 4 7 9 10 11 12 13 14 15 | 55.6 a.u.
2'F-ANA at 2 3 5 8 10 13 14 15 | 49.6 a.u.

A few entries again (study 2):
Sequence | E-score
CTCCGCAC | 0.061
CGAGAGCC | 0.0251
TACTGGGA | -0.0786
ATGCAATC | -0.135
AAGCGACA | 0.117
ACGAACGA | -0.0578
